Assay results from different studies.
Organism: Acinetobacter baumannii

Compound	assay	system	conditions	how to read	MIC
NCCCC[C@@H]1NC(=O)[C@@H](Cc2c[nH]c3ccccc23)NC(=O)[C@H](Cc2c[nH]c3ccccc23)NC(=O)[C@@H](N)CSCc2ccc(cc2)CSC[C@@H](C(N)=O)NC(=O)[C@@H](Cc2c[nH]c3ccccc23)NC(=O)[C@H](Cc2c[nH]c3ccccc23)NC(=O)[C@@H](Cc2c[nH]c3ccccc23)NC(=O)[C@H](CCCCN)NC(=O)[C@@H](CCCCN)NC(=O)[C@H](CCCCN)NC(=O)[C@@H](CCCCN)NC1=O		19606			16 µg/mL
C[C@H](N)[C@@H](CCCCCCCCCCCCCCC(=O)CCCCCCC[C@@H](O)[C@@H](C)N)O[C@@H]1O[C@H](CO)[C@H](O)[C@H](O)[C@H]1O	microbial growth, resazurin	ATCC19606	6 h		12.6 µM
CC[C@H](C)[C@@H]1NC(=O)[C@@H](CC(C)C)NC(=O)[C@H](CCN)NC(=O)[C@@H](NC(=O)[C@@H](CO)NC(=O)[C@@H](NC(=O)[C@H](CCN)NC(=O)c2ccc(-c3ccccc3)cc2)[C@@H](C)O)CCNC(=O)[C@H](CC(C)C)NC(=O)[C@H](CCN)NC(=O)[C@H](CCN)NC1=O					1 µg/mL
CCN1CCC(CCNCc2cc3ccccc3nc2SCc2ccccc2)CC1	microbial growth, broth dilution				64 µg/mL
CC(C)C[C@@H]1NC(=O)[C@@H](Cc2ccccc2)NC(=O)[C@H](CCN)NC(=O)[C@@H](NC(=O)[C@H](CN)NC(=O)[C@@H](NC(=O)CC(CN)C2CCCCC2)[C@@H](C)O)CCNC(=O)[C@H]([C@@H](C)O)NC(=O)[C@H](CCN)NC(=O)[C@H](CCN)NC1=O (some centres unmarked)	broth microdilution	ATCC 19003, cation-adjusted Mueller-Hinton broth			0.25 µg/mL
CC[C@@H](C)[C@@H](NC(=O)[C@@H](C)NC(=O)[C@H](NC(=O)[C@@H](CC(=O)O)NC(=O)[C@@H](CCCCN)NC(=O)[C@@H](CO)NC(=O)[C@H](NC(=O)[C@@H](CC(N)=O)NC(=O)[C@@H](C)NC(=O)[C@H](NC(=O)[C@@H](CCC(=O)O)NC(=O)[C@@H](CCCCN)NC(=O)[C@H](NC(=O)[C@H](NC(=O)[C@@H](Cc1c[nH]cn1)NC(=O)[C@@H](CCCCN)NC(=O)[C@H](NC(=O)[C@@H](CCCCN)NC(=O)[C@@H](CCCCN)NC(=O)[C@H](NC(=O)[C@@H](CC(C)C)NC(=O)[C@@H](CCCCN)NC(=O)[C@@H](CC(N)=O)NC(=O)[C@@H](Cc1ccccc1)NC(=O)[C@@H](CCCNC(=N)N)NC(=O)[C@@H](CCCCN)NC(=O)[C@@H](CCCNC(=N)N)NC(=O)[C@@H](Cc1ccccc1)NC(=O)CN)C(C)C)C(C)C)[C@H](C)O)[C@H](C)CC)[C@H](C)O)C(C)C)C(C)C)C(=O)N[C@@H](C(=O)N[C@H](C)C(=O)NCC(=O)N[C@H](CO)C(=O)NCC(=O)N[C@@H](C(=O)N[C@H](C)C(=O)N[C@@H](C(=O)NCC(=O)N[C@H](C)C(=O)N[C@H](C)C(=O)N[C@H](CCSC)C(N)=O)C(C)C)C(C)C)C(C)C		isolate RKI 19/09, CAMHB			32 µg/mL
CC(C)[C@@H]1NC(=O)[C@@H]2CCCN2C(=O)[C@@H](C)NC(=O)[C@H](CO)NC(=O)[C@H](C)NC(=O)[C@H](C(C)(C)C)NC(=O)[C@H](CCO)NC(=O)[C@H](Cc2c[nH]c3ccccc23)NC(=O)[C@H](CCO)NC(=O)[C@@H](CCN)NC(=O)[C@H](CCC(N)=O)NC(=O)[C@H](CCN)NC(=O)[C@H](Cc2ccc(O)cc2)NC(=O)[C@H]([C@@H](C)O)NC1=O	broth microdilution	multidrug-resistant, CAMHB with 0.002% polysorbate-80	16 h, 37 °C		> 64 µg/mL
CC[C@H](C)[C@H](NC(=O)[C@H](CCCN)NC(=O)[C@H](CC(N)=O)NC(=O)[C@H](Cc1c[nH]c2ccccc12)NC(=O)[C@H](Cc1ccccc1)NC(=O)[C@H](CCCN)NC(=O)[C@H](CCCNC(=N)N)NC(=O)[C@H](CC(C)C)NC(=O)[C@H](Cc1c[nH]c2ccccc12)NC(=O)[C@H](CCCN)NC(=O)[C@H](CCCNC(=N)N)NC(=O)[C@H](CC(C)C)NC(=O)CNC(C)=O)C(=O)N[C@@H](CCCN)C(=O)N[C@@H](CCCNC(=N)N)C(N)=O	bacterial growth, broth microdilution	multidrug-resistant			3.12 µM
CC[C@@H](C)[C@@H](NC(=O)[C@@H](C)NC(=O)[C@@H](CCCCN)NC(=O)[C@@H](CC(C)C)NC(=O)[C@@H](C)NC(=O)[C@H](NC(=O)[C@@H](Cc1c[nH]cn1)NC(=O)[C@@H](CC(C)C)NC(=O)[C@H](NC(=O)[C@H](NC(=O)[C@@H](CCCCN)NC(=O)[C@@H](CCCCN)NC(=O)[C@@H](C)NC(=O)[C@@H](CO)NC(=O)[C@@H](CCCCN)NC(=O)[C@@H](Cc1ccccc1)NC(=O)[C@H](NC(=O)[C@@H](CCCCN)NC(=O)[C@@H](CC(C)C)NC(=O)[C@@H](Cc1ccccc1)NC(=O)[C@@H](CO)NC(=O)[C@@H](CCCCN)NC(=O)[C@@H](Cc1c[nH]c2ccccc12)NC(=O)[C@@H](CCCCN)NC(C)=O)[C@H](C)O)[C@H](C)O)C(C)C)[C@H](C)O)C(=O)N[C@H](CO)C(=O)N[C@H](CO)C(N)=O		884, Mueller-Hinton broth	24 h, 37 °C		1.5 µM
CC(C)(C)c1ccc(COc2cc3c(=O)c(C(=O)NCCNCCO)cn(Cc4ccccc4)c3cc2Cl)cc1		ATCC 19606		≥80% growth inhibition	< 0.25 µg/mL
CC(C)C[C@H](NC(=O)[C@H](Cc1ccc(O)cc1)NC(=O)[C@@H]1CCCN1C(=O)[C@H](CCCNC(=N)N)NC(=O)[C@@H]1CCCN1C(=O)[C@H](CCCCN)NC(=O)[C@H](CC(=O)O)NC(=O)[C@@H]1CCCN1C(=O)[C@H](CCCNC(=N)N)NC(=O)C1(N)CCCCC1)C(=O)N1CCC[C@H]1C(=O)N[C@@H](CCCNC(=N)N)C(=O)N1CCC[C@H]1C(=O)N[C@@H](CCCNC(=N)N)C(=O)N1CCC[C@H]1C(=O)N1CCC[C@H]1C(=O)N[C@@H](CCCNC(=N)N)C(=O)N1CCC[C@H]1C(=O)N[C@H](C(=O)N[C@@H](CCCNC(=N)N)C(=O)N[C@@H](CSCC(N)=O)C(=O)NN)C(C)C	bacterial growth	ATCC 19606, 100% Mueller-Hinton broth	90 min, 37 °C, strain ATCC 19606		> 250 µg/mL
CCCCCCCCCCCCCC(=O)N[C@H](CCN)C(=O)N[C@H](C(=O)N[C@@H](CCN)C(=O)N[C@@H](CC(C)C)C(=O)N[C@H]1CCNC(=O)[C@H](CC(=O)O)NC(=O)[C@H](C(C)C)NC(=O)[C@@H](Cc2ccc(O)cc2)NC(=O)[C@H](CCN)NC(=O)[C@H](CC(C)C)NC(=O)[C@@H](Cc2ccccc2)NC1=O)[C@@H](C)O	broth microdilution	BNCC 194496			4 µg/mL
CC[C@H](C)[C@H](NC(=O)[C@H](CCCCNC(=N)N)NC(=O)[C@H](CC(N)=O)NC(=O)[C@H](CC(C)C)NC(=O)[C@H](Cc1ccccc1)NC(=O)[C@H](CCCCNC(=N)N)NC(=O)[C@H](CCCCNC(=N)N)NC(=O)[C@H](CC(C)C)NC(=O)[C@H](CC(C)C)NC(=O)[C@H](CCCCNC(=N)N)NC(=O)[C@H](CCCCNC(=N)N)NC(=O)[C@H](CC(C)C)NC(=O)CNC(C)=O)C(=O)N[C@@H](CCCCNC(=N)N)C(=O)N[C@@H](CCCCNC(=N)N)C(N)=O	bacterial growth, broth microdilution	multidrug-resistant			6.25 µM
CC[C@H](C)[C@H](NC(=O)[C@H](CCCNC(=N)N)NC(=O)[C@H](Cc1ccccc1)NC(=O)[C@H](CC(C)C)NC(=O)[C@H](CCCCN)NC(=O)[C@H](CO)NC(=O)[C@@H](NC(=O)[C@H](CC(C)C)NC(=O)[C@H](CCCCN)NC(=O)[C@H](C)NC(=O)[C@H](CC(N)=O)NC(=O)[C@H](CCCNC(=N)N)NC(=O)[C@H](Cc1ccc(O)cc1)NC(=O)[C@H](C)NC(=O)[C@@H](NC(=O)[C@H](CCCCN)NC(=O)[C@H](CC(N)=O)NC(=O)[C@H](CCCCN)NC(=O)[C@H](CC(C)C)NC(=O)[C@H](CO)NC(=O)[C@H](CC(C)C)NC(=O)[C@H](C)NC(=O)[C@H](C)NC(=O)[C@H](CO)NC(=O)[C@@H](NC(=O)[C@@H](NC(=O)[C@H](Cc1c[nH]c2ccccc12)NC(=O)[C@@H](NC(=O)[C@H](CO)NC(=O)[C@@H](NC(=O)[C@@H](N)CC(C)C)C(C)C)C(C)C)[C@@H](C)CC)[C@@H](C)CC)C(C)C)C(C)C)C(=O)N[C@@H](C)C(=O)N[C@@H](CC(C)C)C(=O)O	broth microdilution	ATCC 19606	24 h, 37 °C		8 µg/mL
